Experimental data of several laboratories.
Compare with care: the assays were run in different laboratories.

CC(C)NCC(O)c1ccc(O)c(O)c1 (stereo not drawn)
sarcomere length (ventricular cardiomyocytes, C57BL/6 mouse; dose not given, 0.404 s): 1.72 µm

NC(=O)c1cnc2[nH]ccc2c1N[C@@H]1[C@@H]2CC3C[C@H]1C[C@@](O)(C3)C2
percent change (CD8+ naive T cells, flow cytometry; Japanese humans, peripheral blood; 20 mg single dose; reference: baseline): 0.23%

OC[C@@H](O)[C@H](O)[C@H](O)[C@@H](O)CO
log2 fold change (binding, MIDAS equilibrium dialysis LC-MS; A2AR-BRIL thermostabilized; concentration not given; reference: no-protein control): -0.142

N#Cc1ccn2c(-c3ccncc3)c(-c3ccc(F)cc3)nc2c1
log2 fold change (kinase binding, competitor, MIB/MS competition, measured: PKH3; Candida albicans cell lysate; 10 µM; reference: DMSO): -0.16

OC(CCN1CCCCC1)(c1ccccc1)C1CC2C=CC1C2 (stereo not drawn)
change, beta power, EEG O1-Pz (resting-state EEG; healthy elderly humans; oral, 4 mg, eyes open, LS mean; reference: baseline): -7.8%

O=C(O)CNC(=O)Cc1ccc(O)cc1
log2 fold change (binding, MIDAS equilibrium dialysis LC-MS; A2AR-BRIL thermostabilized; concentration not given; reference: no-protein control): 0.554

Cc1cc([C@H]2C[C@H]3[C@@H](CF)SC(N)=N[C@@]3(c3ccc(F)cc3F)CO2)on1
Aβ40 level (measured: Aβx-40; Mus musculus wild-type, cerebrospinal fluid; subcutaneous, 100 mg/kg, 7 h): 0.44 ng/mL

O=C(O)CNC(=O)Cc1ccccc1
sarcomere length (ventricular cardiomyocytes, C57BL/6 mouse; dose not given, 0.756 s): 1.72 µm

O=c1ccn([C@H]2C[C@H](O)[C@@H](CO)O2)c(=O)[nH]1
log2 fold change (binding, MIDAS equilibrium dialysis LC-MS; A2AR-BRIL thermostabilized; concentration not given; reference: no-protein control): 0.0927

N#Cc1ccc2c(c1)[C@H]1CCCN(C(=O)c3ccc4[nH]cnc4c3)[C@H]1C2
fasting plasma insulin (T2DM patients with overweight or obesity, plasma; oral, 240 mg, day 15 (360 h), multiple dosing, mean): 16.6 mU/L

Nc1ncnc2[nH]cnc12
log2 fold change (binding, MIDAS equilibrium dialysis LC-MS; A2AR-BRIL thermostabilized; concentration not given; reference: no-protein control): 0.785

C[C@H](Oc1ccc(Br)cc1-c1ccon1)C(=O)O
difference from placebo (first response peak; human, tibialis anterior muscle; 800 mg, 15 Hz, single ascending dose): -4.13%

Repeated from above:
CC(C)NCC(O)c1ccc(O)c(O)c1 (stereo not drawn)
sarcomere length (ventricular cardiomyocytes, C57BL/6 mouse; dose not given, 0.404 s): 1.72 µm

O=C(O)CNC(=O)Cc1ccc(O)cc1
log2 fold change (binding, MIDAS equilibrium dialysis LC-MS; A2AR-BRIL thermostabilized; concentration not given; reference: no-protein control): 0.554
